Published values gathered from unrelated publications.
Compare with care: the assays were run in different laboratories. ± marks the error that the study gave.

SMILES | test | system | conditions | how to read | endpoint | value
CCS(=O)(=O)Nc1ccc(Oc2ccc(F)cc2F)c(-c2cn(C)c(=O)c3[nH]ccc23)c1 | Staphylococcal bacteremia leading to discontinuation | human, relapsed/refractory AML | oral, dose not given | – | treatment-emergent adverse events | 5%
Cc1nc(Nc2ccc(CC(=O)O)cc2)nc(Nc2ccc(F)c(C(F)(F)F)c2)c1C | – | mice, chronic ethanol plus binge | intraperitoneal, 0.3 mg/kg daily, ethanol diet 4 weeks, dosed last two | relative to: vehicle | serum urea nitrogen | no effect
Cn1cc(-c2nc(N[C@@H]3CCCC[C@@H]3N)c(F)c3c2C(=O)NC3)cn1 | refers to: Mouth haemorrhage | patients with relapsed or refractory AML | oral, 60 mg once daily | – | hemorrhagic adverse events | 25%
CC(C)(c1ccccc1)c1cc(-n2nc3ccccc3n2)c(O)c(C(C)(C)c2ccccc2)c1 | – | human aged 16-21 years | concentration not given, foundation, 95th percentile | – | daily dermal exposure dose | 1.69 ng/kg/day
COc1cc2c(Oc3ccc4[nH]c(C)cc4c3F)ccnc2cc1OCC1(N)CC1 | – | paediatric recurrent refractory sarcoma | 12 mg | – | grade 1 or 2 Leukopenia | 36.4%
CCCC1CCC(C2CCC(c3ccc(F)c(F)c3)CC2)CC1 (centres unmarked) | – | rat, fetus | 10 ng/mL in perfusate, low dose, mixture of 21 LCMs | – | fetal accumulation | 0.163 ± 0.111 ng/g
CN1CCN(S(=O)(=O)c2cc([N+](=O)[O-])ccc2N(CCOS(C)(=O)=O)CCOS(C)(=O)=O)CC1 | – | naive NOD/SCID mice, pooled blood | intraperitoneal, 18.8 mg/kg, week 4 | – | amylase | 676 U/L
O=C(Nc1ccc(Cl)cc1)Nc1ccc(Cl)c(Cl)c1 | ultrafiltration | cow milk whey | 200 nM nominal in whole milk | – | dose fraction in permeate | 2.37%
COc1cc(C(=O)NC2CCN(C)CC2)c(F)cc1Nc1ncc(C(F)(F)F)c(Oc2cccc3c2C(=O)N(C)C3)n1 | – | human patients, plasma | oral, 50 mg single dose, geometric mean | – | mean residence time | 32.5 h
CC(C)(O)c1cc(Nc2cc(Oc3cn(C4CC4)nc3C3CCOCC3)ccn2)ccn1 | Constipation | patients with advanced cancer, Japanese cohort | oral, dose not given, grade ≥3 | – | treatment-related adverse events | 0%
COc1ccc(C[C@@H]2NC(=O)[C@H]([C@@H](C)O)NC(=O)[C@@H]3[C@@H]4CCN3C(=O)[C@@H]3Cc5cn(c6ccc(F)cc56)CCCCCCN(Cc5ccc(cc5)CCNC(=O)[C@]5(C)CCCN5C2=O)C(=O)CCC(=O)N[C@@H](C)C(=O)N[C@H](CNC(=O)CCCCC[N+](C)(C)C)C(=O)N[C@@H](Cc2cccc(c2)CNC(=O)CO4)C(=O)N3)cc1 | refers to: Headache | humans | concentration not given, Study-001 | – | participants with adverse event | 27.5%
C=CC(=O)N1CC[C@H](n2nc(C#Cc3cc(OC)cc(OC)c3)c3c(N)ncnc32)C1 | – | human patients | oral, dose not given, QD regimen, adverse drug reaction, added: ferric citrate hydrate | – | hyperphosphatemia incidence, grade ≥3 | 0%
CC(=O)c1c(C)c2cnc(Nc3ccc(C4CCN(CCS(C)(=O)=O)CC4)cn3)nc2n(C2CCCC2)c1=O | – | HR+/HER2- advanced breast cancer patients | oral, 100 mg bid, all grades, monotherapy arm | – | patients with hypertriglyceridaemia | 20%
O=c1ccn([C@@H]2O[C@H](CO)[C@@H](O)[C@H]2O)c(=S)[nH]1 | – | monkey cells | – | – | CC50 | 283 µM

For quick reference, copied from above:
SMILES | test | system | conditions | how to read | endpoint | value
CCS(=O)(=O)Nc1ccc(Oc2ccc(F)cc2F)c(-c2cn(C)c(=O)c3[nH]ccc23)c1 | Staphylococcal bacteremia leading to discontinuation | human, relapsed/refractory AML | oral, dose not given | – | treatment-emergent adverse events | 5%
O=C(Nc1ccc(Cl)cc1)Nc1ccc(Cl)c(Cl)c1 | ultrafiltration | cow milk whey | 200 nM nominal in whole milk | – | dose fraction in permeate | 2.37%
